Measurements of several laboratories.
Compare with care: the assays were run in different laboratories. “And” joins repeats or separate records; there may be more than shown.
Target: Serine/threonine-protein kinase pim-3 (PIM3, Homo sapiens, UniProt Q86V86)

Compound | assay | conditions | how to read | endpoint | value
Cc1cccc(-c2ccc3nc(NC(=O)C4CCOCC4)nn3c2)c1 | enzyme activity, Dundee kinase panel | 10 µM | – | remaining activity | 84%
NC(=O)[C@@H](O)C[C@H]1CCc2sc3ncnc(O[C@H]4CC[C@H](N5CCOCC5)CC4)c3c21 | enzyme activity, inhibitor | 10 µM | – | inhibition | 19%
O=C=[N][Ru-4]123([n]4c5ccc(O)cc5c5c6c(c7cc(F)c[n+]1c7c54)C(=O)NC6=O)[S+]1CC[S+]2CC[S+]3CC1 (stereo not drawn) | enzyme activity | 100 nM, human enzyme, added: 10 µM ATP | reference: untreated | remaining activity | 30%
COc1c(Cl)cccc1Nc1c(-c2ccncc2C#C[C@@]2(C)CCCN2C(=O)/C=C/CN(C)C)[nH]c2c1C(=O)NCC2 | binding, competition with immobilised ligand | 3 µM | – | remaining binding | 100%
COc1ccc(NC(=O)Nc2ccc3c(c2)C(=O)N(C(C)CO)CC(C)C(CN(C)Cc2ccc4c(c2)OCO4)O3)cc1 (stereo not drawn) | binding, competition with immobilised ligand | 10 µM | – | remaining binding | 72%
Cc1cccc(O[C@H]2CCC[C@@H](C(C)CNCc3ccncc3)C2)c1 (relative stereo) | enzyme activity, inhibitor | 10 µM | – | inhibition | -1%
CNS(=O)(=O)Nc1nccc(Cc2c(C)c3ccc(Oc4ncccc4F)cc3oc2=O)c1F | binding, competition with immobilised ligand | 10 µM | – | remaining binding | 91%
CCn1cc(C(=O)O)c(=O)c2c(N)c(F)c(NC3CCCCC3)cc21 | kinase activity | 0.1 µM, added: ATP at Km | – | inhibition | 54.7%
COc1ccc(C(=O)/C=C/c2ccccc2-c2c[nH]c3ccc(C#N)cc23)c(O)c1 | enzyme activity, inhibitor | 20 µM | – | inhibition | 28%
CNC(=O)C[C@H](Cc1ccc(C#N)cc1)NC(=O)c1cc(-c2ccc(CN[C@H](C)c3ccc(C)cc3)o2)ccc1Cl | enzyme activity, inhibitor | 1 µM | – | activity vs control | 74%
C=CC(=O)N1Cc2nc(-c3cc(-c4cc(Cl)cnc4Cl)c(F)cc3F)n(-c3ccncn3)c2C1 | cell-free assay, inhibitor | 1 µM | – | inhibition | 7.6%
CCN1CCN(Cc2ccc(C(=O)Nc3ccc(C)c(NCc4cnc5[nH]ccc5c4OC)c3)cc2C(F)(F)F)CC1 | binding, competition with immobilised ligand | 1 µM | – | remaining binding | 100%
Cc1cccc(-c2ccc3nc(NC(=O)C4CCCCC4)nn3c2)c1 | enzyme activity, Dundee kinase panel | 10 µM | – | remaining activity | 99%
CN1CC[C@@H](COc2cnc(C#N)cc2-c2ccn3nc(NC(=O)C4CC4)cc3c2)C1 | enzyme activity, inhibitor | 1 µM | – | inhibition | -10%
CN1CCN(Cc2ccc(NC(=O)c3cccc(C#Cc4cnc(N)c5ncccc45)c3)cc2C(F)(F)F)CC1 | cell-free assay, competition with immobilised ligand | 0.5 µM | – | remaining binding | 100%
COc1cc(Nc2nc(C)cc(-c3cnn4nc(OC)ccc34)n2)cc(C(F)(F)F)c1 | inhibitor | 1 µM | reference: control | remaining activity | 83%
C=C1CCCCCCCCCC(CO)C1=O (stereo not drawn) | cell-free assay, competition with immobilised ligand | 10 µM | – | remaining binding | 100%
Nc1ncc2c(n1)-c1c([nH]c3ccc(C4=CCOCC4)cc13)CCC2 | binding, competition with immobilised ligand | 1 µM | – | remaining binding | 100%
Cc1ccc(-c2c(/C=C(\C#N)C(=O)NC(C)C)n(CCCO)c3ncnc(N)c23)cc1 | cell-free assay, competition with immobilised ligand | 1 µM | – | remaining binding | 100%
Nc1ncc(-c2cc(-c3cnn(CC(F)(F)F)c3)ncc2F)nc1C(=O)NC1CNCC(F)C1 (stereo not drawn) | enzyme activity | 1 µM | reference: DMSO control | remaining activity | 46.1%
C=CC(=O)Nc1cccc(-c2cnc3[nH]cc(C(=O)NC(C)(C)C)c3n2)c1 | kinase activity | 0.1 µM | – | inhibition | 1% and -3%

Repeated from above:
Compound | assay | conditions | how to read | endpoint | value
COc1c(Cl)cccc1Nc1c(-c2ccncc2C#C[C@@]2(C)CCCN2C(=O)/C=C/CN(C)C)[nH]c2c1C(=O)NCC2 | binding, competition with immobilised ligand | 3 µM | – | remaining binding | 100%
CNS(=O)(=O)Nc1nccc(Cc2c(C)c3ccc(Oc4ncccc4F)cc3oc2=O)c1F | binding, competition with immobilised ligand | 10 µM | – | remaining binding | 91%
